Measurements pooled from the literature.
Each numbered part is a random draw from the data of one study; scales do not carry over between parts. Substitutions count along the parent as printed.

Series 1
Target: Prothrombin, mature alpha-thrombin (F2, Homo sapiens, UniProt P00734)
Technique: aptamer microarray, sandwich
Molecule type: DNA with 2'F-ANA
Matrix: in vitro
Tested at: 200 nM
Notes: whole 15-mer aptamer, many near background
Together with: Cy3 exosite-II aptamer, 400 nM
Direction: higher = stronger binding
Sequence: GGTTGGTGTGGTTGG
Modification	mean fluorescence intensity [a.u.]
2'F-ANA at 1 8 10 12 14	49.8
2'F-ANA at 1 4 5 11 13	66.7
2'F-ANA at 1 2 4 5 9 12 13	68.9
2'F-ANA at 1 3 4 6 7 10 11 12 13 14	59.7
2'F-ANA at 4 5 7 9 13 15	51.2
2'F-ANA at 2 5 6 7 10 11 12 14	49.6
2'F-ANA at 4 5 7 10 13 14	45.1
2'F-ANA at 1 2 6 8 10 11 13 14 15	53.5
2'F-ANA at 1 3 5 6 10 11 12 13	51.7
2'F-ANA at 1 2 7 8 9 10 11 13 15	55
2'F-ANA at 2 3 5 6 7 8 11 13 14 15	54.4
2'F-ANA at 2 3 5 6 7 10 12 13 15	86.5
2'F-ANA at 2 3 5 6 7 8 11 13 15	73.9
2'F-ANA at 1 2 3 9 10 12 13	87.8
2'F-ANA at 4 5 6 7 12 13 15	84.6
2'F-ANA at 1 2 4 5 6 7 8 9 11 12 15	87
2'F-ANA at 1 7 10 11 12 13	66.5
2'F-ANA at 4 5 6 7 8 9 11 12 14 15	49.7
2'F-ANA at 1 2 3 4 6 7 8 9 10 11 12 13 14	158
2'F-ANA at 2 3 6 7 9 10 11 13	282
2'F-ANA at 2 3 4 5 7 8 9 11 14	47.2
2'F-ANA at 1 2 7 9 10 11 13	51.8
2'F-ANA at 2 6 8 11 13	312
2'F-ANA at 1 4 6 7 8 14 15	56.5
2'F-ANA at 1 3 5 8 9 13 15	80.3

Series 2
Target: Hepatocyte nuclear factor 3-beta, forkhead domain (FOXA2, Homo sapiens, UniProt Q9Y261, residues 142-269)
Technique: protein-binding microarray
Molecule type: hairpin DNA
Matrix: in vitro
Tested at: not given
Notes: whole hairpin DNA, median over replicate spots
Relative to: not given
Direction: higher = stronger binding
Residues (chain): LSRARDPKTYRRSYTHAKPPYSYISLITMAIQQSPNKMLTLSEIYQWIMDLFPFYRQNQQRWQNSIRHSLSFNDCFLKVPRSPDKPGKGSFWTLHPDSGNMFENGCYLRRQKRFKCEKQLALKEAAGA
Sequence	median fluorescence
GAGGCCATGCAAACGACGCCTCCTGGCGTCGTTTGCATGGCCTCACACTC (5mC at 14 30)	3680 a.u.
GAGGCCATGTACGCAACGCCTCCTGGCGTTGCGTACATGGCCTCACACTC	3430 a.u.
GAGGCCATGTAACCGACGCCTCCTGGCGTCGGTTACATGGCCTCACACTC (5mC at 30)	3370 a.u.
GAGGCCAAGCAAACAACGCCTCCTGGCGTTGTTTGCTTGGCCTCACACTC	3900 a.u.
GAGGCCATGCAAACAGCGCCTCCTGGCGCTGTTTGCATGGCCTCACACTC (5mC at 29)	3720 a.u.
GAGGCCATCGAACCAACGCCTCCTGGCGTTGGTTCGATGGCCTCACACTC (5mC at 35)	3310 a.u.
GAGGCCAGGTAAACAACGCCTCCTGGCGTTGTTTACCTGGCCTCACACTC	4220 a.u.
GAGGCCACGTAACCAACGCCTCCTGGCGTTGGTTACGTGGCCTCACACTC (5mC at 8 36)	3240 a.u.
GAGGCCATGTAATCAACGCCTCCTGGCGTTGATTACATGGCCTCACACTC	3150 a.u.
GAGGCCACGCAAACAACGCCTCCTGGCGTTGTTTGCGTGGCCTCACACTC (5mC at 8 36)	3830 a.u.
GAGGCCATCTAACCAACGCCTCCTGGCGTTGGTTAGATGGCCTCACACTC (5mC at 9)	2890 a.u.
GAGGCCCGGTAAACAACGCCTCCTGGCGTTGTTTACCGGGCCTCACACTC (5mC at 7 37)	3790 a.u.
GAGGCCCGGTAACCAACGCCTCCTGGCGTTGGTTACCGGGCCTCACACTC	3430 a.u.
GAGGCCATGCAGACAACGCCTCCTGGCGTTGTCTGCATGGCCTCACACTC (5mC at 33)	3430 a.u.
GAGGCCATCGAAACAACGCCTCCTGGCGTTGTTTCGATGGCCTCACACTC (5mC at 9 35)	3100 a.u.
GAGGCCTTGCAAACAACGCCTCCTGGCGTTGTTTGCAAGGCCTCACACTC	3150 a.u.
GAGGCCATCCAAACAACGCCTCCTGGCGTTGTTTGGATGGCCTCACACTC (5mC at 9)	3070 a.u.
GAGGCCATGTAACCAACGCCTCCTGGCGTTGGTTACATGGCCTCACACTC	3040 a.u.
GAGGCCATGCAAACCGCGCCTCCTGGCGCGGTTTGCATGGCCTCACACTC (5mC at 29)	3500 a.u.
GAGGCCATTTAAACAACGCCTCCTGGCGTTGTTTAAATGGCCTCACACTC	2780 a.u.
GAGGCCATGTAACAAACGCCTCCTGGCGTTTGTTACATGGCCTCACACTC	3270 a.u.
GAGGCCACGTAAACAACGCCTCCTGGCGTTGTTTACGTGGCCTCACACTC	3690 a.u.
GAGGCCATGCAAACAAGGCCTCCTGGCCTTGTTTGCATGGCCTCACACTC	3330 a.u.
GAGGCCATGCAAACAAAGCCTCCTGGCTTTGTTTGCATGGCCTCACACTC	3760 a.u.

Series 3
Target: Interferon regulatory factor 5, full length, phosphomimetic (IRF5, Homo sapiens, UniProt Q13568-2, residues 1-514, S451D/S453D/S456D/S462D)
Technique: protein-binding microarray
Molecule type: double-stranded DNA, one strand shown
Matrix: in vitro
Tested at: 940 nM top
Notes: 60-bp whole probe
Together with: salmon DNA 0.4 mg/ml
Relative to: random background probes
Direction: higher = stronger binding
All sequences stand within: GCCTAGCAC … GTCTTGATTCGCTTGACGCTGCTG
Sequence	fitted relative affinity
TCATGTATATATTTTAAACTGTGCTAG	0.191 z-score
GACGATTTCAGACTGTAGACGTGCTAG	-0.119 z-score
GACGGTATCGACACTGGGCACGTGCTA	3.54 z-score
TTAGGTATCGGGTTTCGGTCAGTGCTA	7.53 z-score
TTAGGCCTCGGACTGGGTTAGTGCTAG	-0.631 z-score
CCTTCCATCACTTTCCACTTGTGCTAG	2 z-score
TTAGGACTGGGTATCTGTTAGTGCTAG	0.479 z-score
ATGATTGGTTGAACATGAACGTGCTAG	-0.184 z-score
TTAGGACTGGGGTATCGGTCAGTGCTA	1.93 z-score
TTAGATTTCGGATTTCGATTAGTGCTA	1 z-score
TTAGAACTAGGGACTGGATTAGTGCTA	-0.278 z-score
TTCCTTTGCTTTCTCCCAAGGTGCTAG	2.13 z-score
GACGGTATCGGTTTCCGGACGTGCTAG	10.2 z-score
AGAGCTATCACTATTCTAGGGTGCTAG	0.0389 z-score
TTAGGGTCCCTTTTCCTTTAGTGCTAG	0.435 z-score
TCACCCTTGCTTTCCAAACTGTGCTAG	0.847 z-score
CCCGCTTTTTTTTTTTTTTTGTGCTAG	0.9 z-score
GACGGTTTCGATTCCGGGACGTGCTAG	12.4 z-score
TCACTTCCCCATCTTGTACTGTGCTAG	1.65 z-score
GACGGTTTCGACTTTCGGGGCGTGCTA	7.83 z-score
GACGGTTTCCATCTCCTGACGTGCTAG	1.77 z-score
GACGATTCCAGTTTCGAGGCGTGCTAG	4.31 z-score
TTTTTTTTTTTTTTTTTGTAGTGCTAG	0.998 z-score
TATGTCTGGCCCAAGCAGCCGTGCTAG	-0.586 z-score
GACGGTTTCCTGTCCCTGACGTGCTAG	0.902 z-score

Series 4
Target: ABI1, truncated, D143A, DHFR fusion (Arabidopsis thaliana)
Technique: DHFR PCA, deep sequencing
Matrix: yeast
Notes: methotrexate growth selection, single substitutions
Together with: (+)-ABA 58 µM
Relative to: wild-type fitted maximum
Direction: higher = stronger binding
Starting sequence: PYL1, truncated, DHFR fusion (Arabidopsis thaliana); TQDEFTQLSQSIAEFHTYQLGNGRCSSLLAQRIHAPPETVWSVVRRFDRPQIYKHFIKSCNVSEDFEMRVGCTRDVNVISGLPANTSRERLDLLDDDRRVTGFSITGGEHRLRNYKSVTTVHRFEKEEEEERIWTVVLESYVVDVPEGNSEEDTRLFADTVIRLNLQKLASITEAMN
Variant	relative binding score
R24L	76.5%
N22A	94.6%
E131V	89.8%
S9N	69%
K126G	92%
P83W	9.09%
H122S	46.8%
T101E	-0.194%
L8E	44.9%
R88C	80.4%
L164Q	85.9%
L28W	61.4%
N114C	32.7%
L112I	8.7%

Series 5
Target: CCNA2, cyclin fold, Cln2 fusion (human)
Technique: yeast growth competition, sequencing
Matrix: yeast
Notes: strong parent motif
Relative to: not given
Direction: higher = stronger binding
Starting sequence: PKMYT1 docking peptide (human); SFEPRNLLSLFED; partner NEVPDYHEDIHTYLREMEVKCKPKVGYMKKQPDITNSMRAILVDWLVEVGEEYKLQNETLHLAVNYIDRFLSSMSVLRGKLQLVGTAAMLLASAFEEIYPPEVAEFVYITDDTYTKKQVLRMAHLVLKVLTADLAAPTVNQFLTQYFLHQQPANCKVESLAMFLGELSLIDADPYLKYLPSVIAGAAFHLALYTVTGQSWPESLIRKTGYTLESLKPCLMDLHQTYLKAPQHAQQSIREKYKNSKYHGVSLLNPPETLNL
Variant	normalised enrichment score
S1L	3.92
F11A	0.115
F11I	0.115
S9N	1.94
R5L	0.362
S1G	4.06
E12A	1.83
F2D	0.0755
P4T	-0.748
E3L	3.93
R5C	0.854
F2L	3.46
R5Y	-0.476
E12Q	2.06
E12I	2.02
L7C	-0.633
L8T	1.51
R5V	0.932
E12V	2.14
S1Y	3.15

A few entries again (series 5):
Variant	normalised enrichment score
E12A	1.83
F2D	0.0755
R5C	0.854
E3L	3.93
E12V	2.14
F11A	0.115
F11I	0.115
S1Y	3.15
R5Y	-0.476
R5L	0.362
S9N	1.94
